# Published values of several laboratories.
# Numbered parts are unrelated; each lists some results of a single study. Changes are numbered by the printed parent chain.

# Series 1 — method: DHFR PCA, deep sequencing; medium: yeast; with: (+)-ABA 17 µM; reference: wild-type fitted maximum; reading: higher = stronger binding
# Target: ABI1, truncated, D143A, DHFR fusion (Arabidopsis thaliana)
# Notes: methotrexate growth selection, single substitutions
# Starting sequence: PYL1, truncated, DHFR fusion (Arabidopsis thaliana); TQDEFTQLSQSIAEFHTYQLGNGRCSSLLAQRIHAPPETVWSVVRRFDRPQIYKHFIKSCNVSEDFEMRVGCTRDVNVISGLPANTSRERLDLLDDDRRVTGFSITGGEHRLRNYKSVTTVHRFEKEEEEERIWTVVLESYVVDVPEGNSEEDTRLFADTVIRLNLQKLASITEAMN
Variant,relative binding score
K126H,90.4%
L156S,78.8%
R69C,78.2%
Y18P,81.4%
E151V,87.8%
K168C,78.2%
A84N,15.3%
V70W,13.3%
E67I,85.6%
T101D,-0.229%
T173M,59.3%
E174A,59.3%
N149Y,2.45%
I162N,6.88%
L20I,83.8%

# Series 2 — method: aptamer microarray, sandwich; form: DNA with 2'F-ANA; medium: in vitro; tested at: 200 nM; with: Cy3 exosite-II aptamer, 400 nM; reading: higher = stronger binding; strand: GGTTGGTGTGGTTGG
# Target: Prothrombin, mature alpha-thrombin (F2, Homo sapiens, UniProt P00734)
# Notes: whole 15-mer aptamer, many near background
Modification,mean fluorescence intensity
2'F-ANA at 2 7 8 10 11 12 13 15,159 a.u.
2'F-ANA at 1 4 5 6 7 10 12 13,50.5 a.u.
2'F-ANA at 1 4 5 6 9 10 11 14,46.1 a.u.
2'F-ANA at 1 2 5 6 10 14,47.1 a.u.
2'F-ANA at 2 4 7 11 15,353 a.u.
2'F-ANA at 4 7 9 13 14 15,88 a.u.
2'F-ANA at 13,457 a.u.
2'F-ANA at 2 3 8 9 11 14,449 a.u.
2'F-ANA at 1 2 4 5 7 9 10 11 12 14 15,47.6 a.u.
2'F-ANA at 2 5 7 8 9 10 14 15,58.6 a.u.
2'F-ANA at 1 4 6 7 8 12 15,288 a.u.
2'F-ANA at 5 7 8 9 10 13 15,48.8 a.u.
2'F-ANA at 3 4 6 11 14 15,258 a.u.
2'F-ANA at 1 2 3 4 5 6 7 9 10 14,52.8 a.u.
2'F-ANA at 1 2 4 8 11 13 15,102 a.u.
2'F-ANA at 4 5 6 9 10 14 15,47.1 a.u.
2'F-ANA at 3 6 7 10 12,620 a.u.
2'F-ANA at 3 4 7 13 14 15,404 a.u.
2'F-ANA at 1 2 6 9 11 14,48.4 a.u.
2'F-ANA at 2 3 6 7 9 13 14 15,324 a.u.

# Series 3 — method: RNA Bind-n-Seq; form: RNA; medium: in vitro; tested at: 200 nM; notes: whole 134-nt RNA, ends assumed; with: 150 mM KCl; reference: input library; reading: higher = stronger binding
# Target: Ras GTPase-activating protein-binding protein 1, full length (G3BP1, Homo sapiens, UniProt Q13283)
# UniProt Q13283, sequence (whole entry, looked up): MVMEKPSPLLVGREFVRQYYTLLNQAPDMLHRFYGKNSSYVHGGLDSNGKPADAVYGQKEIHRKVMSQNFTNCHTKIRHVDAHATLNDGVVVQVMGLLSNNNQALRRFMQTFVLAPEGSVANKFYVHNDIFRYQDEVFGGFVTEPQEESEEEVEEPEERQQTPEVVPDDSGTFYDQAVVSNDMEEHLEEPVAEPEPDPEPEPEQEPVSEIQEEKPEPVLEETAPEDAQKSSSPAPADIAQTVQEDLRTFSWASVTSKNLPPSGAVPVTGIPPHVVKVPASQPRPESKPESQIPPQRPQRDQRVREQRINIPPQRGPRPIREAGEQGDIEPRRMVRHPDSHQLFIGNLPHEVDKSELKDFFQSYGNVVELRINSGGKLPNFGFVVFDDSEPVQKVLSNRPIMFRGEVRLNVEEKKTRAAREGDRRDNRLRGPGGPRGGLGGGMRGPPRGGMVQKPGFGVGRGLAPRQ
# All sequences stand within: GGGAGUUCUACAGUCCGACGAUC … UGGAAUUCUCGGGUGUCAAGG
Strand,log2 enrichment
UAGUGAUGAAAAAUUUCUCCCUUCUAGGUUUCCCUUGGGGGCUUUGAAAUAACACCACCAGUGGUCUUAAGGUUGAAGUGUGGUUCAGGG,-0.238
UCCUGUGCUACACAUCGUAUGUACCGAAUCGUGUGUGUGUGUGUGUGUGUGUGUGUGUGAAAGUAUUAUGUUACGCCGUUCGGAUCUGCA,1.07
UGGCCCUGGUGGCAUGCGGGGAGGAAGAGGUGGCCUGAUGGAUCGUGGUGGUCCCGGUGGAAUGUUCAGAGGUGGCCGUGGUGGAGACAG,0.674
AAGUCCUGUGCUACACAUCGUAUGUACCGAAUCGGGUUUGGGGUUUGGGGUUUGGGAAAGUAUUAUGUUACGCCGUUCGGAUCUGCACUU,0.176
ACCAUGCAGGUGGGCAUCCUUGGGAAGUGGGGCAAGGGGGGGAUAGGGAGGGGGGUAACACUUUGGGAACAGGUGGUCCCAGGUCGUUUC,1.36
GCAGGAAGUAAAAACAAAUGGAAAUGCUUCGGAUAGUGGCAGGGGUGGGGGUUGCUAAGGAAAGAAAGGGAUGGGAGUGGGUAAAGAGUU,0.705
UGUGCUACACAUCGUAUGUACCGAAUCGGGGAAAAAAAGGGGAAAAAAAGGGGUUUUUGGGGAAAGUAUUAUGUUACGCCGUUCGGAUCU,-0.177
CCUCAAGUCCUGUGCUACACAUCGUAUGUACCGAAUCGGUGGUUUUUGGAGGAAAGUAUUAUGUUACGCCGUUCGGAUCUGCACUUCCAG,0.0463
CAAGUCCUGUGCUACACAUCGUAUGUACCGAAUCGGGUGGGAAAAAGGGUUUGGGAAAGUAUUAUGUUACGCCGUUCGGAUCUGCACUUC,0.66
CACAGACAACACGCACCCACACAGACACAGAGGGAAGGGGUUGGGAUUGGGACAGGGUGCACAGCAGGGCGGGGUAGGACCCCAGCCCCU,1.86
CCUGUGCUACACAUCGUAUGUACCGAAUCGGGUUUUUUGGGUUUUUUGGGGUUUUUUGGGGAAAGUAUUAUGUUACGCCGUUCGGAUCUG,-0.707
ACCAUGCAGGUGGGCAUCUUUGGGAAGUGGGGCAAGGGGGGAAAAGGGAGGGGGGUAACACUUUGGGAACAGGUGGUCCCAGGUCGUUUC,1.01
UCCUGUGCUACACAUCGUAUGUACCGAAUCGGGUUUUUGGGGUUUUUGGGGUUUUUGGGGAAAGUAUUAUGUUACGCCGUUCGGAUCUGC,0.403
AAGUCCUGUGCUACACAUCGUAUGUACCGAAUCGGUUUGGGGUUUGGGGUUUGGGGAAAGUAUUAUGUUACGCCGUUCGGAUCUGCACUU,-0.354

# Series 4 — target: HLF, bZIP domain (human); method: DHFR protein complementation; medium: yeast; reference: wild-type JUN-FOS pair; reading: higher = stronger binding
# Notes: single substitutions, most at no-binding floor
# Starting sequence: JUN, bZIP domain (human); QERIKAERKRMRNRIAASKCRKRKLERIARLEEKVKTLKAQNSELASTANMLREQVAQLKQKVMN; partner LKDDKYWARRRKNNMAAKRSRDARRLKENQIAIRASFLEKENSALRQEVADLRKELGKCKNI
Variant,binding fitness
N42Y,-1.32 natural log
T48M,-1.46 natural log
A49C,-1.35 natural log
E54L,-1.5 natural log
N42L,-1.53 natural log
L52S,-1.54 natural log
N42F,-1.47 natural log
T37C,-1.38 natural log
A29K,-1.47 natural log
E33L,-1.4 natural log
A49R,-1.32 natural log
T48E,-1.33 natural log
L52P,-1.52 natural log
L52T,-1.41 natural log
K39Q,-1.32 natural log
K39T,-1.25 natural log
E32V,-1.28 natural log

# Series 5 — method: protein-binding microarray; form: double-stranded DNA, one strand shown; medium: in vitro; tested at: not given; reading: higher = stronger binding
# Target: Myc proto-oncogene protein, bHLH-zipper, MAX partner unstated (MYC, Homo sapiens, UniProt P01106, residues 368-449)
# UniProt P01106, sequence (368-449, looked up): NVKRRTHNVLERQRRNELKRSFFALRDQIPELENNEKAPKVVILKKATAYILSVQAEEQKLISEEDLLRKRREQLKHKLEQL
# Notes: k-mer, scored over probes, only values ≥0.25
Strand,E-score
CAATCACG,0.264
CCACGACA,0.28
ACATGGCC,0.354
CACATGGC,0.486
GCCTACAC,0.276
CCCCATGC,0.411
CGTGCACC,0.366
CTCATGCC,0.315
ACGCGGAC,0.358
CGTGCCAC,0.34
GCGTGATA,0.322
CATGCAGC,0.331
CGCCTCTC,0.25
CGTGGCGC,0.387
ATGTGGCA,0.273
CGTGTACA,0.279
ACATGTCG,0.297
ACGTCGTG,0.296
ATGTGCCG,0.375
ACGTGAGA,0.327
AGCATGAG,0.366
CCACCACG,0.404
CCCATGCC,0.376
CCACACCG,0.295
CCATGCGA,0.383

# Series 6 — target: CCND1, cyclin fold, Cln2 fusion (human); method: yeast growth competition, sequencing; medium: yeast; notes: weak parent motif; reference: not given; reading: higher = stronger binding
# Starting sequence: CDKN1B docking peptide (human); PSACRNLFGPVDH
Variant,normalised enrichment score
R5Q,0.414
L7R,-0.0676
G9V,-0.0481
P1G,0.838
F8D,0.0308
H13I,0.776
H13Q,1.05
D12P,0.271
D12W,0.604
C4Y,0.168
P1F,0.896
D12F,0.488
S2M,0.157
L7E,-0.0641
A3F,0.43
G9Y,0.687
N6E,1.28
G9C,0.577
A3G,0.117
H13K,1.1
L7C,-0.337
F8V,-0.582
L7M,0.264
N6T,0.344

# Some of these lines once more (series 6):
Variant,normalised enrichment score
N6T,0.344
F8V,-0.582
H13K,1.1
F8D,0.0308
P1F,0.896
C4Y,0.168
D12F,0.488
G9V,-0.0481
D12W,0.604
D12P,0.271
